Assay results of several laboratories.
Each line is one published result; not all experiments were run side by side. Several values in a cell are separate wells, animals, samples, runs or records. ± marks the error that the study gave. In brackets after ≈: the same amount, converted by molar mass.

SMILES = CCSc1nc2ccccc2n1Cc1nnc(-c2ccc(C)o2)o1; assay = relaxation, calcium antagonist; system = isolated rabbit jejunum; setting = together with: 80 mM K+ contraction; endpoint = EC50; value = 0.47 ± 0.07 µg/mL (≈ 1.38 µM)
SMILES = C=CC[C@@H]1c2ccc(OC)c(OC)c2CN2CCc3cc4c(cc3[C@H]12)OCO4; system = P2rx7 A312V/A312V mouse, S. aureus wound infection; setting = dose not given, day 0; scale = baseline: day 0; endpoint = relative wound size; value = 1
SMILES = COc1ncc(-c2nc3c(n2C(C)C)[C@H](c2ccc(Cl)cc2)N(c2cc(Cl)cn(C)c2=O)C3=O)c(OC)n1; assay = antileukemic activity, item: treatment failure, resistant disease; system = human, acute myeloid leukaemia; setting = dose not given, all patients, IWG criteria; endpoint = best overall response; value = 54.9%
SMILES = C[C@@H](NC(=O)c1ccc(C#Cc2cccc(F)c2)cn1)C(C)(C)O; assay = field recording; system = rat hippocampal slice CA3; setting = 10 µM, together with: MTEP 10 µM, 10 min pretreatment; scale = baseline: baseline; endpoint = spontaneous spike inter-event interval; value = 98.8 ± 11.8%
SMILES = Clc1cc2c(cc1Cl)Oc1cc(Cl)c(Cl)cc1O2; assay = untargeted metabolomics; system = female Sprague-Dawley rat, liver extract; setting = dose not given; scale = baseline: vehicle; endpoint = number of changed metabolites; value = 432
SMILES = CC(C)C1CCC(N2CCC(N3C(=O)/C(=N\O)c4ccccc43)CC2)CC1 (stereo not shown); system = conscious Sprague-Dawley rat; setting = intravenous bolus, 100 nmol/kg; endpoint = mean arterial pressure change; value = decreased
SMILES = [131I-].[Na+]; assay = ATA response criteria; system = human, papillary thyroid cancer with metastases; setting = 3700 MBq; endpoint = structural incomplete response; value = 18.6%
SMILES = CSCC[C@@H]1NC(=O)[C@H](Cc2c[nH]c3ccccc23)NC(=O)[C@@H](NC(=O)CCNC(=O)[C@H](CCC(N)=O)NC(=O)[C@@H]2CCCN2C(=O)[C@@H]2CCCN2C(=O)[C@H](CCCNC(=N)N)NC(=O)[C@H](CCCNC(=N)N)NC(=O)[C@H](CCCNC(=N)N)NC(=O)[C@H](CCC(N)=O)NC(=O)[C@H](CCCNC(=N)N)NC(=O)[C@H](CCCNC(=N)N)NC(=O)[C@H](CCCCN)NC(=O)[C@H](CCCCN)NC(=O)[C@H](CCCNC(=N)N)NC(=O)CN)CSSC[C@@H](C(=O)O)NC(=O)[C@H]([C@@H](C)O)NC(=O)CNC(=O)[C@H](CC(C)C)NC(=O)[C@H](Cc2c[nH]cn2)NC(=O)[C@H](CCCNC(=N)N)NC(=O)[C@@H]2CCCN2C(=O)[C@H](CO)NC1=O; assay = immunohistochemistry, item: CSNK2A2; system = NCI-H226 xenograft mouse, tumour tissue; setting = intravenous, 10 mg/kg, day 16; endpoint = CK2α' staining; value = 0.075 ± 0.078 IOD/area
SMILES = CCSc1nc2ccccc2n1Cc1nnc(-c2cc(OC)c(OC)c(OC)c2)o1; assay = relaxation; system = isolated rabbit jejunum; setting = spontaneous contractions; endpoint = EC50; value = 0.24 ± 0.01 µg/mL (≈ 0.563 µM)
SMILES = C[C@]1(CO)Cc2ncn(-c3ccc(C#N)c(Cl)c3)c2C(=O)O1; system = Japanese subjects; setting = 20 mg single dose; endpoint = urinary potassium excretion 0-24 h; value = 26.6 mmol
SMILES = Cc1c(C)c2c(c(C)c1O)CCC(C)(C(=O)O)O2 (stereo not shown); assay = Fe3+ reduction, ferricyanide reduction; setting = 30 µg/mL; endpoint = absorbance; value = 1.26 ± 0.032
SMILES = C=CCNc1c(O)cc2c(O)c1C[C@@H](C)C[C@H](OC)[C@H](O)[C@@H](C)/C=C(\C)[C@H](OC(N)=O)[C@@H](OC)/C=C\C=C(/C)C(=O)N2; system = human; setting = dose not given; endpoint = partial response duration; value = 2.25 years
SMILES = CCSc1nc2ccccc2n1Cc1nnc(-c2ccc(F)cc2)o1; assay = relaxation; system = isolated rabbit jejunum; setting = spontaneous contractions; endpoint = EC50; value = 0.28 ± 0.01 µg/mL (≈ 0.79 µM)
SMILES = CCCCC1(CCCC)CN(c2ccccc2)c2cc(SC)c(OCC(=O)N[C@@H](C(=O)NCC(=O)O)c3ccccc3)cc2S(=O)(=O)C1; assay = item: HDL cholesterol; system = human, serum; setting = 5 mg once daily, day 8; endpoint = serum HDL-C; value = 46.7 mg/dL
SMILES = Cc1cn(-c2cc(NC(=O)c3ccc(C)c(Nc4nccc(-c5cccnc5)n4)c3)cc(C(F)(F)F)c2)cn1; system = Alzheimer's disease patients; setting = 300 mg, 12 months, group mean; scale = direction not given; endpoint = ADCS-ADL score; value = 52.7 ± 12.8
SMILES = c1csc(-c2ccc(-c3cccs3)s2)c1; system = C57BL/6J mouse, diet-induced obese; setting = intraperitoneal, 5 mg/kg daily, 336 h; endpoint = liver to body weight ratio; value = 0.0392 ± 0.00459
SMILES = CCSc1nc2ccccc2n1Cc1nnc(-c2ccc(OC)c(OC)c2)o1; assay = relaxation; system = isolated rabbit jejunum; setting = spontaneous contractions; endpoint = EC50; value = 0.22 ± 0.01 µg/mL (≈ 0.555 µM)
SMILES = Cc1nc(Nc2ccc(CC(=O)O)cc2)nc(Nc2ccc(F)c(C(F)(F)F)c2)c1C; system = C57BL/6J mouse, high-fat diet MASH model, liver; setting = intraperitoneal, 0.3 mg/kg daily, 60% fat diet for 12 weeks, dosed final four weeks; scale = baseline: untreated; endpoint = PDE4B expression; value = no effect
SMILES = C[C@H]1O[C@@H](O[C@H]2CC[C@@]3(C)[C@@H](CC[C@]4(C)[C@@H]3C=C[C@]35OC[C@@]6(CCC(C)(C)C[C@H]63)[C@@H](O)C[C@]54C)[C@]2(C)CO)[C@H](O)[C@@H](O[C@@H]2O[C@H](CO)[C@@H](O)[C@H](O)[C@H]2O)[C@H]1O; system = mouse, ethanol-fed, hepatic SIRT1 knockdown; setting = dose not given, high dose; endpoint = liver to body weight ratio; value = 4.86% and 5.62% and 5.76% and 6.43% and 5.81% and 5.99%
SMILES = CNC(=O)c1c(C)oc2cc(Oc3ccnc4cc(OCCN5CCOCC5)ccc34)ccc12; assay = DCE-MRI; system = human, tumour; setting = 4 mg twice daily, day 2; endpoint = decrease in IAUC; value = 22.6%
SMILES = CN1CCN(S(=O)(=O)c2cc([N+](=O)[O-])ccc2N(CCOS(C)(=O)=O)CCOS(C)(=O)=O)CC1; system = NSG mice, sample BD PDX; setting = intraperitoneal, 25 mg/kg weekly x3; scale = baseline: treated over vehicle; endpoint = EFS ratio (T/C); value = 1.5
SMILES = CC[C@H](C)[C@@H]1NC(=O)[C@@H]2CCCN2C(=O)[C@H](CC(C)C)NC(=O)[C@H](CC(C)C)NC(=O)CNC(=O)[C@@H](NC(=O)[C@@H](NC(=O)[C@H](CC(=O)O)NC(=O)CNC(=O)[C@@H](NC(=O)[C@H](C)NC(=O)CNC(=O)[C@H](CCCCN)NC(=O)[C@H](CC(C)C)NC(=O)[C@H](CC(C)C)NC(=O)[C@H](CCCCN)NC(=O)CNC(=O)[C@@H](NC(=O)[C@@H](N)CC(C)C)C(C)C)C(C)C)C(C)C)CSSC[C@@H](C(=O)O)NC1=O; assay = RNA-seq, item: Tacstd2; system = mouse, traumatic brain injury model, frontal cortex and hippocampus; setting = dose not given; scale = baseline: TBI alone; endpoint = log2 fold change; value = -2.99

Excerpt of the above:
SMILES = Cc1c(C)c2c(c(C)c1O)CCC(C)(C(=O)O)O2 (stereo not shown); assay = Fe3+ reduction, ferricyanide reduction; setting = 30 µg/mL; endpoint = absorbance; value = 1.26 ± 0.032
SMILES = C=CCNc1c(O)cc2c(O)c1C[C@@H](C)C[C@H](OC)[C@H](O)[C@@H](C)/C=C(\C)[C@H](OC(N)=O)[C@@H](OC)/C=C\C=C(/C)C(=O)N2; system = human; setting = dose not given; endpoint = partial response duration; value = 2.25 years
